Assay results of several laboratories.
Numbered parts are unrelated; each lists some results of a single study. Positions count from the first letter of the parent shown.

Set 1
Target: Histone acetyltransferase KAT6A, winged helix 2, GST fusion (KAT6A, Homo sapiens, UniProt Q92794, residues 85-181)
Method: protein binding microarray
Molecule type: double-stranded DNA, one strand shown
Medium: in vitro
Tested at: not given
Setting: 8-mer, flanks averaged, mean of 2 arrays, mostly near background
Baseline: not given
Direction: higher = stronger binding
Measurement: E-score
Residues (chain): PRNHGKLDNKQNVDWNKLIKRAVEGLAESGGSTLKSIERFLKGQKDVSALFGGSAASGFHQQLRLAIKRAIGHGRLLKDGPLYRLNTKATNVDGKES
TCCCACGA: 0.148
CTCGCGTA: -0.0236
CAGGGCAG: 0.168
ACCACAGA: -0.0697
ATTAGTTA: 0.0898
CGGTCTAC: 0.051
CGTAAGGC: -0.263
ATTAAACC: -0.000605
AGAAGCGG: 0.0139
CCTTTCTC: -0.0966
AAGGGCGC: 0.169
CGCGCGAA: 0.0828
AGACTTTG: -0.232
AACGTCCT: -0.159
GTTACGGA: -0.0243
CTCGTTAA: -0.0889
GTTGGACA: -0.0164
CAACTTTC: -0.0223
CTACCTTA: -0.104
CGAAGAAC: 0.0955
GAGTAGGA: -0.0555
AGCGACTC: -0.0243
CTTCGAGA: 0.047
GTATATGA: -0.00195
TAACCCCA: -0.15

Set 2
Target: CCND3, cyclin fold, Cln2 fusion (human)
Method: yeast growth competition, sequencing
Medium: yeast
Setting: weak parent motif
Baseline: not given
Direction: higher = stronger binding
Measurement: normalised enrichment score
Parent: MICAL3 docking peptide (human); LQLRRQLSFSEDS; partner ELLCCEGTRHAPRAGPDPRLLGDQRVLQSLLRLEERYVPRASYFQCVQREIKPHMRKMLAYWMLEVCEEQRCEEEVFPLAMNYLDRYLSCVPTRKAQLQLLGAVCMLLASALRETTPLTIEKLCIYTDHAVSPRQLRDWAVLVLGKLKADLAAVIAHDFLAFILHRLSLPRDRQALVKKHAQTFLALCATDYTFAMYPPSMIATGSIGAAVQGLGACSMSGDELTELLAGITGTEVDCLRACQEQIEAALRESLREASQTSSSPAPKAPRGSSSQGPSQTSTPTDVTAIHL
Q2Y: 0.311
S8W: -0.0509
Q6E: -0.108
D12S: -0.0941
F9L: -0.187
R5P: -0.107
D12A: -0.0637
L7W: 0.223
D12G: -0.0549
L3V: 0.0299
F9W: -0.156
Q6D: -0.217
L3P: 0.214
Q6P: -0.208
D12E: -0.0665
S8T: -0.0499
Q6F: -0.45
S10C: 0.172
Q2E: -0.0904

Set 3
Target: RING finger protein unkempt homolog, zinc fingers 1-6, GST-SBP tag (UNK, Homo sapiens, UniProt Q9C0B0, residues 30-357)
Sequence of UniProt Q9C0B0 (30-357, looked up): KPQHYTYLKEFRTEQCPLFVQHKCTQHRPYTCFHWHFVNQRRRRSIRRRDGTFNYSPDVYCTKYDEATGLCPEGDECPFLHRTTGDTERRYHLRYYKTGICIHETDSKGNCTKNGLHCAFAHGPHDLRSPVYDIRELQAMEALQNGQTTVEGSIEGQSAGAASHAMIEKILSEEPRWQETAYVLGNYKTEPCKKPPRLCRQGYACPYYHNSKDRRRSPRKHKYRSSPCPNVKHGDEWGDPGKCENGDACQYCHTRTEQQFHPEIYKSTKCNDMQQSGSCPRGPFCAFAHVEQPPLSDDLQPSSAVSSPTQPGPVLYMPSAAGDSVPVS
Method: RNA Bind-n-Seq
Molecule type: RNA
Medium: in vitro
Tested at: not given
Setting: RNA with constant flanks, human-mouse chimeric sites, ends assumed
Baseline: input RNA pool
Direction: higher = stronger binding
Measurement: bound/input enrichment
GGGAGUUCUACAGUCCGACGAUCUGUAGUUUCUUGAUUUAUCAUUUUUCUCUUUUCUUUCAGAUCGUCAGGAAAAGCCUAAAGAUUAGGUUGUAAGAAAAACAGAAGCCAUGUUUCGAAGACCUGUGUUAAUUACAGGUAGUCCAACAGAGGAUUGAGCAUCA: 0.306 ratio
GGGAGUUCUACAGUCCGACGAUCAACAUUUUGUCAAAUUGUUAUGUUCCUAAAAACGUAGUGAACACUCUGAUACACUUCAUCUGCUUGUACAUCUGUAUGAUAGAGAAAUGUAAAUAUGUUAAUCCAAGCAAUGUGUCACUUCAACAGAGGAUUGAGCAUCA: 0.239 ratio
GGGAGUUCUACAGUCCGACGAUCUGGCGCCUCCCAUUUUUACUCGUGUUUGUAUUUUUAUUUUUAUAAGAUACAUGUAUUUACAAUUGAGCUUUUGUUACAUAAUGCUGAAAUGCUACUGGAGAUUAUGAAAAAUGUUUCAAUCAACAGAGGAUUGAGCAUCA: 0.257 ratio
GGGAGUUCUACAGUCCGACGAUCUUUCUACUGCAGCAAACGAUGCUAAGAAUUAAGGAUCCUAAGAAGUCCCUGGAUUUUUAUACUAGAGUUCUUGGACUGACCCUCCUGCAGAAGCUUGACUUCCCUGCUAUGAAGUUCUCGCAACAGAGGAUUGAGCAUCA: 0.827 ratio
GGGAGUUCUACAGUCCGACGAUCAGAAUCUUGGGACUGUUUUACUUAAUUGGUCAUUGAUAGCUUAACAAACAUGGAGAUAAGAUUAGAAAUCUUGACAUCAACAAGUAUUAAGCAGAAAAAACCAUGGCCACGUGUCUCCUGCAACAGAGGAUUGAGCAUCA: 0.125 ratio
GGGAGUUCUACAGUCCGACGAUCUCCCAAAUCCAGCAGCUCCUUGAAAUAUUGAGACAAAGCCUGGAAAUACAGGGAAGGCGAUAACAUUGUACAUUGGUUUACAUUUUUUCCCCCUGUGGAUUUUUCUAGAGGUCAUAGUGCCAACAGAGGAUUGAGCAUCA: 0.354 ratio
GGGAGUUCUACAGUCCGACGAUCAAUUUCCUGUCAUACUUUUUAGACAUUCACAUCAGACUUACAGAGCAUUGGGCCUCUUUCUAGGUUUGAAUUAUUUCUCAGCUAUGGAUAUGAUCAAAUGAGAACACUGCUUAACUAAUGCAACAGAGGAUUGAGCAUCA: 0.636 ratio
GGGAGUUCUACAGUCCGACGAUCGAAUCCUACUCAGGCGGAUUUUGCAACACCAAGCUCACAGCAGCAGCUCCAUAGUCACAGUAGGGUAGUUUUGGGGCUCUGUGGCCAGGGUUUUAUUCAUGUGCAGGUUUGGAAAAUGUACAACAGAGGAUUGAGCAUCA: 0.639 ratio
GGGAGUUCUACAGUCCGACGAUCCCCCAAUUACCAUCUGUAGAGUUGGAAUGCACUCUCUUUUUUAAAAAACAUGUAUACAUUUUAGGGCUGUAGAUUUAUUUUCCUGGUUUUGUUUUUCAUUGCUGACUUUUGAGCACAGAACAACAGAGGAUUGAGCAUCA: 2.04 ratio
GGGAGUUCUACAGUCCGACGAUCGAUAAGAAAAGCUUGUUGGAGACCCGCUUGCAUGUCACUGGUAGAGACCUGAGGUGUAAAAUAGCUGAAACUUUCGGAUUUCAAGAAAAUUACAUCAAGAUCGUAAUAAAUAAGAAACAGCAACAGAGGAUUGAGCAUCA: 0.363 ratio
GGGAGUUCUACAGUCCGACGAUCGGAAGCACAAUGAUGGAAAUAGAUGGCGACAAAGGCAAGCAGGGCGGGCCCACCUACUACAUAGACACCAAUGCCCUCCGCGUGCCCAGGGAGAACAUGGAGGCCAUCUCACCACUCAAGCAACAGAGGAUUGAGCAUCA: 0.21 ratio

Set 4
Target: RNA binding protein fox-1 homolog 2, RRM domain, GST-SBP tag (RBFOX2, Homo sapiens, UniProt O43251-10, residues 100-194)
Method: RNA Bind-n-Seq
Molecule type: RNA
Medium: in vitro
Tested at: 365 nM
Setting: natural RNA segment, single round, ends assumed
Baseline: no-protein control
Direction: higher = stronger binding
Measurement: RBNS enrichment (R)
Target sequence (chain): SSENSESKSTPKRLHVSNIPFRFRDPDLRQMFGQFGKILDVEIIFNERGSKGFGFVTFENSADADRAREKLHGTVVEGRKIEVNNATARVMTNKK
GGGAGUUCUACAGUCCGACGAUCUCACCCCAGAAGGAAAAGAGGGGAUAGGGAAAACAAAAGAUUAUGCAAGCCCCCAGCCCUUCCUGAAGCCCGUGCUCUGCCCAGCACUCGGAUGCUGCUCUUUUCUUGCUUGGAAUUCUCGGGUGCCAA: 1.22
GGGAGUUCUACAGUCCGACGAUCUUUGCUUGGCUCUCAUUCUCUCUUGUCUGCUGCCAUGUAAGAUGUGCCUUUUGCCUUCCACCAUGAUUGUGAGGCCUCCCAGCCACAUGGAACUGUGAGUUCAUUAAACCUGGAAUUCUCGGGUGCCAA: 0.334
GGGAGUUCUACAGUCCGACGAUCCAUAAGCCCGUGGUUUGUGUACUGGAACUAAAGCGGAACUCACUGAUUCAUAUUGGAUCCCCAGGUAUACCUUCUGCUGGUAGCAUAUGGCUGGAAAAGGCCGUUUGCCUUGGAAUUCUCGGGUGCCAA: 0.308
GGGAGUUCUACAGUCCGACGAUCAGCAUCCUUAGAUUGGCUCAACUGUUACUUUCCUAAGGAGUCCUUCUACAGAAUAGGUCAGAUCUUGGCCUCCCAAACCCCUUAUUUUUAAAAUACUUUGCGCCUUGCUUUGGAAUUCUCGGGUGCCAA: 17.5
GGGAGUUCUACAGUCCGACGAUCAGCCAGCCUGGGCCCAAUGAAACCUGGUCUCAAGAGAACAAAACCAAACCAAUCAAAUAUGGUCCUAAGAAUGCAGGGUGGGAUUAGAGCCAGUGUCUCUGCUUGAGAUGUGGAAUUCUCGGGUGCCAA: 1.42
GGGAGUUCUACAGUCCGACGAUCGGUGAAGGAAGGCAUCCCUUGUGGGGCAUUUCACUUCUUCCCACUCCCCAAAUAAUGUUACACAUGGCAGUACUCAUGUUCCCCUUGAUUCCCAGGGACGUCGCGCCUUGUGGAAUUCUCGGGUGCCAA: 0.423
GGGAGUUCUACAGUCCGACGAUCCUUAUUUAUAAAAGGAUGAUGGCUGUAUUUUGAGUUUCUGCUGGAAACUUCCAUAAGGGGCAGCAGUUGAGGUUGGGUAGUGCUGGGCCCAGCUGAGCUGGCCUGGGAAAUGGAAUUCUCGGGUGCCAA: 0.737
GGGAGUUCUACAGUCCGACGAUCUUUAAUCUCUUCUAUUUUGUUGUCGUUGCUUGUUUGAAGAAAAUCAUGACAUUCCAAGUUGACAUUUUUUUUUCAUUUUAAUUAAAAUUUGAAAUUCUGAACACCGUCAGUGGAAUUCUCGGGUGCCAA: 1.1
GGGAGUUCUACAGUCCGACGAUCCUGGCUUAUCUCUCCACCCCAAACCUCCUUCCUGUCUGGUCCCCAGCCUGGGGGGGUUCUGAGCAGUGCCUCUUGUCUUGGAGACAGACCUGGUGCCUGGCGCUGCCUUCUGGAAUUCUCGGGUGCCAA: 0.487
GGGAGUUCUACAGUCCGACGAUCGUCCUGUAAAUCGUGUAUUCAUGUUGAUGAUUCUUGGAGAUAGGUUUCACUUUUUCCCAGCUGCGUCCACAGGAAAGGGGAGUCGGAUGCCAGCUGCACCCCGCCUGGCUUGGAAUUCUCGGGUGCCAA: 0.509
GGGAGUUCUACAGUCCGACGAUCUAUUUGAUGACUGUUUCUUGUGGAAGCCCAAAGUCCACUCUAAGAGCAGAAGAAAUACCAAAAUGUUUCCAAAAUUUUUUUAAAAGCUGAGAUUUCCAGCUUUAUAACCAUGGAAUUCUCGGGUGCCAA: 0.479
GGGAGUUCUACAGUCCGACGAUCUGGCCACGAGCCACCACUGCCUCCCGCUGCUGCCCACAGGUGGUGCCGCCAAUGGGCAGUGCCCUCAGGCCGAAGCCUCAAUCCCCCAUCUGAGCCAGGCCUAAUCCUCUUGGAAUUCUCGGGUGCCAA: 0.234

Set 5
Target: ABI1, truncated, D143A, DHFR fusion (Arabidopsis thaliana)
Method: DHFR PCA, deep sequencing
Medium: yeast
Setting: methotrexate growth selection, single substitutions
Together with: (+)-ABA 58 µM
Baseline: wild-type fitted maximum
Direction: higher = stronger binding
Measurement: relative binding score
Parent: PYL1, truncated, DHFR fusion (Arabidopsis thaliana); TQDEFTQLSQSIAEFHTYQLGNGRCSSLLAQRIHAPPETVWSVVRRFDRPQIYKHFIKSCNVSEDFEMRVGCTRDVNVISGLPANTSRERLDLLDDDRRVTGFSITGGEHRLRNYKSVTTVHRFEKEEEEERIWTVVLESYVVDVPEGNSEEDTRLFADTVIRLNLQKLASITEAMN; partner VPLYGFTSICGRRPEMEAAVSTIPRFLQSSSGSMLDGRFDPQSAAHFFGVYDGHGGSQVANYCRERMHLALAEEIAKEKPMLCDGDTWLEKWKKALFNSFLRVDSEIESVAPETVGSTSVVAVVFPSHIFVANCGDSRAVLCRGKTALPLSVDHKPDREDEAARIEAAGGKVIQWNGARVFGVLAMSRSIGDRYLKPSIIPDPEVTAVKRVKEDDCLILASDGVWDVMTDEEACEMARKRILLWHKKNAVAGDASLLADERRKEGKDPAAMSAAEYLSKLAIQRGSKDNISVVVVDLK
C25A: 87.7%
T6F: 85.9%
S63N: 86.7%
N85C: 87%
D65I: 51.3%
D96P: 27.7%
P37Y: 7.4%
T119R: 5.98%
Y53S: 10.9%
G108T: 0.734%
V78F: 62.2%
Q2M: 86.2%
C25S: 59.6%
V40T: 15.4%
A35P: -66.6%
L8Q: 69.2%
N22I: 88.1%
G71E: 18.9%
G107H: 61.6%
F5I: 82.4%

Excerpt of the above (set 2):
L7W: 0.223
S10C: 0.172
L3P: 0.214
Q6D: -0.217
F9W: -0.156
Q2Y: 0.311
L3V: 0.0299
D12S: -0.0941
F9L: -0.187
D12G: -0.0549
D12A: -0.0637
Q6P: -0.208
S8W: -0.0509
R5P: -0.107
Q2E: -0.0904
